Measured values collected from several papers.
Lines come from different studies, so protocols differ. ± marks the error that the study gave. Values after ≈ are worked out from the molar mass of the structure shown.

SMILES | target or system | assay | test system | conditions | how to read | quantity | result
Nc1ncc(-c2cc(-c3cnn(CC(F)(F)F)c3)ncc2F)nc1C(=O)NC1CNCC(F)C1 (stereo not drawn) | ICK | KINOMEscan competition binding |  | 1 µM | relative to: DMSO control | remaining binding | 90%
COC1CN([C@H]2CC[C@H]([C@@]3(C)Oc4c(Cl)cc(C(=O)NCc5c(SC)cc(C)[nH]c5=O)c(C)c4O3)CC2)C1 |  | RNA-seq, refers to: MMP14 | human, whole blood | dose not given, 24 h | relative to: pretreatment baseline | log2 fold change | 2.92
CCN(CC)CC(=O)Nc1cccc(-n2cc(-c3ccc4ccc(-c5cn(-c6cccc(NC(=O)CN(CC)CC)c6)nn5)cc4c3)nn2)c1 | RCC4 | PCR array, refers to: VEGFC |  | 5 x IC50, 4 h, normoxia | relative to: untreated | fold regulation | -1.13 fold
CN1CCC[C@]1(C)/C=C/S(=O)(=O)NC(=O)Nc1c2c(cc3c1CCC3)CCC2 |  |  | human, whole blood ex vivo | 50 mg single dose, 3 h, single ascending dose, added: LPS and ATP |  | IL-1β inhibition | 98.9%
COc1cc(O)ccc1CCC(c1ccc(O)cc1)c1cc2c(c(C)c1O)OC(c1ccc(O)cc1)CC2 (mixture of isomers) |  |  | human blood | 0.3 µM, added: A23187 |  | 4-HDHA level | 26 ± 8 pg/mL
C=C(NC(=O)c1csc(-c2nc3c(cc2O)-c2nc(cs2)C(=O)NC(C(C)O)C(=O)NC(=C(C)OC)c2nc(cs2)C(=O)NC2c4nc(cs4)C(=O)NC(COC(=O)c4c5c6c(cccc6n4O)COC(=O)C(OC4CC(C)(O)C(N(C)C)C(C)O4)C2OC5)c2nc-3cs2)n1)C(N)=O (stereo not drawn) | Streptococcus pneumoniae | microbial growth |  | clinical isolate |  | MIC90 | 7.8 ng/mL (≈ 5.43 nM)
CC(=O)[O-].O.[Cu+2].[O-]c1ccc(Br)cc1C=NCCN1CCOCC1 |  | nitric oxide scavenging |  | 80 µM |  | inhibition | 22.6%
COc1ccc(C(=O)CCc2cc(C(CCc3ccc(O)cc3OC)c3ccc(O)cc3)c(O)cc2OC)cc1 (racemic) |  |  | human blood | 0.3 µM, added: A23187 |  | PGD2 level | 4 ± 4 pg/mL
C=CC(=O)Nc1cccc(Cn2ncc3cnc(Nc4cnn(CCOC)c4)nc32)c1 | EPHA6 human | binding, KINOMEscan |  | 100 nM | lower = stronger binding | percent of control | 100%
Cc1ncsc1-c1ccc(C(C)NC(=O)C2CC(O)CN2C(=O)C(NC(=O)CCCCCCCCCCN2CCCC(Nc3ncc(Cl)c(Nc4ccccc4S(=O)(=O)C(C)C)n3)C2)C(C)(C)C)cc1 (stereo not drawn) | 22Rv1 | RNA-seq, refers to: SETX mRNA |  | concentration not given | relative to: DMSO | log2 fold change | -1.04
CN1CCCNC(=O)c2cccc(c2)C(=O)NCCCN(C)CCCNc2cccc3c2C(=O)c2cccc(c2C3=O)NCCC1 | SAS | RNA-Seq, refers to: ERMAP mRNA |  | 1 µM, 6 h | relative to: untreated cells | log2 fold change | 1.52
CNS(=O)(=O)Nc1nccc(Cc2c(C)c3ccc(Oc4ncccc4F)cc3oc2=O)c1F | SNU-423 | cell viability |  | 7 days |  | IC50 | 0.443 µM
